Results pooled from the literature.
Each line is one published result; not all experiments were run side by side. ± marks the error that the study gave.

CN[C@H](CC(C)C)C(=O)N[C@H]1C(=O)N[C@@H](CC(N)=O)C(=O)N[C@H]2C(=O)N[C@H]3C(=O)N[C@H](C(=O)N[C@H](C(=O)O)c4cc(O)cc(O)c4-c4cc3ccc4O)[C@H](O)c3ccc(c(Cl)c3)Oc3cc2cc(c3O[C@@H]2O[C@H](CO)[C@@H](O)[C@H](O)[C@H]2O[C@H]2C[C@](C)(NCc3ccc(-c4ccc(Cl)cc4)cc3)[C@H](O)[C@H](C)O2)Oc2ccc(cc2Cl)[C@H]1O
Cmax (mouse, plasma; intravenous, 75 mg/kg): 125000 ng/mL

NC1CCN(C(=O)Oc2ccc(C3CCCC4(C3)OOC3(O4)C4CC5CC(C4)CC3C5)cc2)CC1 (racemic)
Cmax (male Sprague-Dawley rat, plasma; oral, 50 mg/kg): 220 ng/mL

CC[C@H](C)[C@H](NC(=O)CNC(=O)[C@H](CCSC)NC(=O)[C@H](CCC(N)=O)NC(=O)[C@H](C)NC(=O)[C@H](CCC(N)=O)NC(=O)[C@@H](NC(=O)[C@H](CC(C)C)NC(=O)[C@H](C)NC(=O)[C@H](CO)NC(=O)[C@H](CCSC)NC(=O)[C@H](CCC(=O)O)NC(=O)[C@H](CC(C)C)NC(=O)[C@H](Cc1ccc(O)cc1)NC(=O)[C@H](CO)NC(=O)[C@H](CCC(=O)O)NC(=O)[C@H](CCC(N)=O)NC(=O)[C@H](CCCNC(=N)N)NC(=O)[C@H](CCCCN)NC(=O)[C@H](CC(=O)O)NC(=O)[C@H](CC(C)C)NC(=O)[C@H](CC(N)=O)NC(=O)[C@H](Cc1ccccc1)NC(=O)[C@H](CCC(=O)O)NC(=O)[C@H](CCCCN)NC(=O)[C@@H](NC(=O)[C@H](CC(C)C)NC(=O)[C@H](CCC(=O)O)NC(=O)[C@H](CCC(=O)O)NC(=O)[C@@H](NC(=O)[C@@H](NC(=O)[C@H](CCCNC(=N)N)NC(=O)[C@H](CCCCN)NC(=O)[C@H](C)NC(=O)[C@H](Cc1ccccc1)NC(=O)[C@H](CCC(=O)O)NC(=O)[C@H](CCC(=O)O)NC(=O)[C@H](CC(C)C)NC(=O)[C@@H](N)CO)C(C)C)C(C)C)C(C)C)[C@@H](C)CC)C(=O)N[C@@H](CO)C(=O)N[C@@H](CCC(=O)O)C(=O)N[C@@H](CCCNC(=N)N)C(=O)N[C@H](C(=O)N[C@H](C(=O)N[C@@H](CCC(=O)O)C(=O)N[C@H](C(=O)N[C@H](C(=O)N[C@@H](CC(C)C)C(=O)N[C@@H](CCCNC(=N)N)C(=O)N[C@@H](Cc1c[nH]cn1)C(=O)N[C@@H](C)C(=O)N[C@@H](C)C(=O)N[C@@H](CCC(N)=O)C(=O)N[C@H](C(=O)N[C@@H](CC(C)C)C(=O)N[C@@H](CCCCN)C(=O)O)[C@@H](C)O)C(C)C)[C@@H](C)CC)[C@@H](C)CC)[C@@H](C)CC
Cmax (male mouse, plasma; intravenous, 1 mg/kg): 11200 ng/mL

Cn1nc(NS(C)(=O)=O)c2c(Cl)ccc(-n3c([C@H](Cc4cc(F)cc(F)c4)NC(=O)Cn4nc(C(F)F)c5c4C(F)(F)[C@@H]4C[C@H]54)nc4nc(OCCC(F)(F)F)ccc4c3=O)c21
Cmax (human, plasma; oral, 1875 mg single dose, powder in bottle, geometric mean): 558 ng/mL

Cc1nc(N2CCC(N(C)c3cc(C(=O)NCCN4CCCC4)cnn3)CC2)nc(C)c1CC(C)C
Cmax (female hamster; oral, 100 mg/kg): 8640 ng/mL

CC1(C)C(=O)N(c2ccc(C#N)c(C(F)(F)F)c2)C(=S)N1c1ccc(C(N)=O)c(F)c1
Cmax (human, male, plasma; oral, 80 mg, soft capsule): 275 ± 59.7 ng/mL

COc1nc(CC=C(C)CC=CC(C)=CC(C)C(OC2OC(CO)C(O)C(O)C2O)C(C)=CCO)c(C)c(O)c1OC (stereo not drawn)
Cmax (C57BL/6 mouse, plasma; oral, 10 mg/kg): 230 ng/mL

CC(C)[C@H]1NC(=O)[C@H](Cc2ccccc2)NC(=O)[C@@H](C(C)C)NC(=O)[C@@H](C)NC(=O)[C@H](CO)NC(=O)[C@@H](Cc2c(-c3ccc(-c4ccc5ccccc5c4)cc3)[nH]c3ccccc23)NC(=O)[C@@H](CO)NC1=O
Cmax (female Sprague-Dawley rat, plasma; intraperitoneal, 20 mg/kg, single dose): 5330 ng/mL

CCCCCCCCCCCCCCCC(=O)N[C@@H](CCC(=O)NCCOCCOCCC(=O)NCCOCCOCCC(=O)NCCCC[C@H](NC(=O)[C@H](CC(=O)O)NC(=O)[C@H](CC(C)C)NC(=O)[C@H](Cc1ccc(O)cc1)NC(=O)[C@H](CCCCN)NC(=O)[C@H](CO)NC(=O)[C@H](Cc1ccc(O)cc1)NC(=O)[C@H](CC(=O)O)NC(=O)[C@H](CO)NC(=O)[C@@H](NC(=O)[C@H](Cc1ccccc1)NC(=O)[C@@H](NC(=O)CNC(=O)[C@H](CCC(N)=O)NC(=O)[C@@H](CO)NC(=O)[C@@H](N)Cc1c[nH]cn1)[C@@H](C)O)[C@@H](C)O)C(=O)N[C@@H](CCCNC(=N)N)C(=O)N[C@@H](CCCNC(=N)N)C(=O)N[C@@H](C)C(=O)N[C@@H](CCC(N)=O)C(=O)N[C@@H](CC(=O)O)C(=O)N[C@@H](Cc1ccccc1)C(=O)N[C@H](C(=O)N[C@@H](CCC(N)=O)C(=O)N[C@@H](Cc1c[nH]c2ccccc12)C(=O)N[C@@H](CC(C)C)C(=O)N[C@@H](CC(C)C)C(=O)N[C@@H](CC(N)=O)C(=O)N[C@H](C(=O)NCC(=O)NCC(=O)N1CCC[C@H]1C(=O)N[C@@H](CO)C(=O)N[C@@H](CO)C(=O)NCC(=O)N[C@@H](C)C(=O)N1CCC[C@H]1C(=O)N1CCC[C@H]1C(=O)N1CCC[C@H]1C(=O)N[C@@H](CO)C(N)=O)[C@@H](C)O)C(C)C)C(=O)O
Cmax (rhesus monkey, female, plasma; subcutaneous, 20 µg/kg, day 28, toxicokinetics, mean): 25.1 ng/mL

O=C1NC2(CC2)COc2ncc(F)cc2[C@H]2COCCN2c2ccn3ncc1c3n2
organ-to-body weight ratio (Sprague-Dawley rat, male, heart; oral, 20 mg/kg/day, 4 weeks, end of treatment): 0.435 ± 0.062%

CC(C)N1CCCCC1C(=O)NC(Cc1ccc(-c2ccccc2)cc1)B(O)O (stereo not drawn)
Cmax (rat, plasma; oral, 1 mg/kg): 666 nM

CC1(C)C(=O)N(c2ccc(C#N)c(C(F)(F)F)c2)C(=S)N1c1ccc(C(=O)O)c(F)c1
Cmax (human, male, plasma; oral, 40 mg, soft capsule): 27.3 ± 6.79 ng/mL
